# Experimental data of several laboratories.
# Protocols differ between the studies behind these lines. Numbers after ± are the reported error.
SMILES,assay,system,conditions,how to read,measurement,value
CC[C@H](C)C(=O)N1CCC(NC(=O)Nc2ccc(OC(F)(F)F)c(F)c2)CC1,,healthy volunteers,"oral, 0.5 mg single dose",,subjects with serious TEAE,0%
CCN(Cc1ccccc1)C(=O)CCc1nc(CN2CCN(C(=O)Cc3ccc(OC)c(OC)c3)CC2)no1,,"rat, kidney","intravenous, 1 mg/kg, 15 min, single dose",,concentration,< 1.8 ng/g
O=C(O)CC[C@H](NC(=O)O[C@@H](CCCCNC(=O)c1ccc([18F])cc1)C(=O)O)C(=O)O,,"mouse, PC-3 PIP/flu xenografts, spleen",30 min,,tissue uptake,3.76 ± 6.48 %ID/g
CN[C@](C)(C[18F])C(=O)O,,"SCID mouse U87 xenograft, heart","60 min, post injection",,tissue uptake,3 ± 1.4 %ID/g
CCCC[C@H]1C(=O)N(C)[C@@H](CCCC)C(=O)N[C@@H](CCCNC(=O)CN2CCN(CC(=O)O)CCN(CC(=O)O)CCN(CC(=O)O)CC2)C(=O)N[C@H](C(=O)NCC(N)=O)CSCC(=O)N[C@@H](Cc2ccc(O)cc2)C(=O)N(C)[C@@H](C)C(=O)N[C@@H](CC(N)=O)C(=O)N2CCC[C@H]2C(=O)N[C@@H](Cc2c[nH]cn2)C(=O)N[C@@H](CC(C)C)C(=O)N(C)CC(=O)N[C@@H](Cc2c[nH]c3ccccc23)C(=O)N[C@@H](CO)C(=O)N[C@@H](Cc2c[nH]c3ccccc23)C(=O)N1C [gallium-68 labelled],static PET,"NOD/SCID mice, CHO-hPD-L1 xenograft, CHO-hPD-L1 tumour","intravenous, 1 h post injection",,tumour to muscle ratio,6.49 ± 0.91
CCCCCCCCCCCCCCCC(=O)NCCCCCCNC(=O)C(CCCCNC(=O)CCN1C(=O)CC(SC[C@H](NC(=O)[C@H](CCCNC(=N)N)NC(=O)CNC(=O)[C@H](CCCCN)NC(=O)[C@@H](NC(=O)[C@H](CC(C)C)NC(=O)[C@H](Cc2c[nH]c3ccccc23)NC(=O)[C@H](C)NC(=O)[C@@H](NC(=O)[C@H](Cc2ccccc2)NC(=O)[C@H](CCC(=O)O)NC(=O)[C@H](CCCCN)NC(=O)[C@H](C)NC(=O)[C@H](C)NC(=O)[C@H](CCC(N)=O)NC(=O)CNC(=O)[C@H](CCC(=O)O)NC(=O)[C@H](CC(C)C)NC(=O)[C@H](Cc2ccc(O)cc2)NC(=O)[C@H](CO)NC(=O)[C@H](CO)NC(=O)[C@@H](NC(=O)[C@H](CC(=O)O)NC(=O)[C@H](CO)NC(=O)[C@@H](NC(=O)[C@H](Cc2ccccc2)NC(=O)[C@@H](NC(=O)CNC(=O)[C@H](CCC(=O)O)NC(=O)CNC(=O)[C@@H](N)Cc2c[nH]cn2)[C@@H](C)O)[C@@H](C)O)C(C)C)[C@@H](C)CC)C(C)C)C(N)=O)C1=O)NC(=O)CCN1C(=O)CC(SC[C@H](NC(=O)[C@H](CCCNC(=N)N)NC(=O)CNC(=O)[C@H](CCCCN)NC(=O)[C@@H](NC(=O)[C@H](CC(C)C)NC(=O)[C@H](Cc2c[nH]c3ccccc23)NC(=O)[C@H](C)NC(=O)[C@@H](NC(=O)[C@H](Cc2ccccc2)NC(=O)[C@H](CCC(=O)O)NC(=O)[C@H](CCCCN)NC(=O)[C@H](C)NC(=O)[C@H](C)NC(=O)[C@H](CCC(N)=O)NC(=O)CNC(=O)[C@H](CCC(=O)O)NC(=O)[C@H](CC(C)C)NC(=O)[C@H](Cc2ccc(O)cc2)NC(=O)[C@H](CO)NC(=O)[C@H](CO)NC(=O)[C@@H](NC(=O)[C@H](CC(=O)O)NC(=O)[C@H](CO)NC(=O)[C@@H](NC(=O)[C@H](Cc2ccccc2)NC(=O)[C@@H](NC(=O)CNC(=O)[C@H](CCC(=O)O)NC(=O)CNC(=O)[C@@H](N)Cc2c[nH]cn2)[C@@H](C)O)[C@@H](C)O)C(C)C)[C@@H](C)CC)C(C)C)C(N)=O)C1=O (stereo partly drawn),,"Kunming mouse, plasma","subcutaneous, 50 nmol/kg",,t1/2,7 ± 0.7 h
C1=CCCC=CCC1.C1=CCCC=CCC1.[Cl][Hg-]([Cl])[Cl].[Cl][Hg-]([Cl])[Cl].[Pt+][c]1ccccc1P(=Nc1ccccc1)(c1ccccc1)c1ccccc1.[Pt+][c]1ccccc1P(=Nc1ccccc1)(c1ccccc1)c1ccccc1,,rat,20 µM,,absorption rate constant,2 h⁻¹
O=c1cc(-c2ccccc2)oc2c(Br)c(O)c(O)c(O)c12,,"C57BL/6 mouse, plasma","po, 250 mg/kg",,AUC extrapolated percentage,5.3 ± 4.3%
COc1ccc(F)cc1S(=O)(=O)Nc1cnc2c(c1)C(=O)NCCO2,,"male cynomolgus monkey, plasma","oral vs intravenous, 0.3 mg/kg",,oral bioavailability,73.9%
CN(C)C(CNC(=O)Nc1cc(C(F)(F)F)ccc1N1CCOCC1)c1ccncc1 (stereo not drawn),,"mouse, serum","intraperitoneal, 360 mg/kg single dose",,serum iron,137 µg/dL
NC(=O)CC[C@@H](NC(=O)[C@@H](CCC(N)=O)NC(=O)[C@@H](CC(N)=O)NC(=O)[C@@H](CC(N)=O)NC(=O)CNC(=O)Cc1ccc2ccccc2c1)C(=O)N[C@H](CC(N)=O)C(=O)N[C@H](Cc1ccc(OP(=O)(O)O)cc1)C(=O)O,TEM,hydrogel,pH 7.4,,fibre width,6 ± 2 nm
CC(C)[C@H](NC(=O)CNC(=O)[C@H](CCC(N)=O)NC(=O)[C@H](C)N)C(=O)O,serious adverse event,human,"10 mg/kg, 3 days, thrice daily dosing",,subjects with adverse events,0%
COC(=O)C[C@H](NC(=O)[C@H](C)NC(=O)[C@@H](NC(=O)[C@H](CC(=O)OC)NC(=O)[C@@H](NC(=O)c1ccc2ccccc2n1)C(C)C)C(C)C)C(=O)COc1c(F)cccc1F,,"Wistar rat pups, focal ischemia-reperfusion","dose not given, up to 48 h",,body temperature and weight,no effect
CC[C@H](C)[C@H](NC(=O)[C@H](Cc1ccccc1)NC(=O)[C@H](CC(=O)O)NC(=O)[C@H](CCCNC(=N)N)NC(=O)[C@H](Cc1ccccc1)NC(=O)[C@H](Cc1ccccc1)NC(=O)[C@H](CCCCN)NC(=O)[C@H](CO)NC(=O)[C@H](CC(C)C)NC(=O)[C@H](CCCNC(=N)N)NC(=O)[C@H](CCSC)NC(=O)[C@H](C)N)C(=O)N[C@@H](CCCCN)C(=O)N[C@@H](CCC(N)=O)C(=O)N[C@@H](CCCNC(=N)N)C(=O)N[C@@H](CCCCN)C(=O)N[C@@H](CCCCN)C(=O)O,circular dichroism,20% TFE in PBS,"200 µM, pH 7.4, 25 °C",,helicity,15%
C[C@H]1C(=O)O[C@@H]2O[C@@]3(C)CC[C@@H]4[C@@]2(OO3)[C@H]1CC[C@]4(C)O,,healthy Chinese human,"oral, dose not given, day 1",,free AUC(0-t),0.799 ± 0.23 µM·h
CC[C@H](C)[C@H](NC(=O)[C@H](CCC(=O)O)NC(=O)[C@H](CCC(=O)O)NC(=O)[C@H](Cc1ccccc1)NC(=O)[C@H](CC(=O)O)NC(=O)CNC(=O)[C@H](CC(N)=O)NC(=O)CNC(=O)CNC(=O)CNC(=O)CNC(=O)[C@@H]1CCCN1C(=O)[C@H](CCCNC(=N)N)NC(=O)[C@@H]1CCCN1C(=O)[C@H](N)Cc1ccccc1)C(=O)N1CCC[C@H]1C(=O)N[C@@H](CCC(=O)O)C(=O)N[C@@H](CCC(=O)O)C(=O)N[C@@H](Cc1ccc(O)cc1)C(=O)N[C@@H](CC(C)C)C(=O)O,,"male human, plasma","intravenous, 0.5 mg/kg, single dose, healthy volunteers",,clearance,5.8 mL/min/kg
[18F]c1ccc2cc(-c3cnc(N4CCOCC4)nc3)[nH]c2c1,dynamic PET,Sprague-Dawley rat,"intravenous, 120 min",,maximum bone radioactivity,1.9 SUV
COc1cc(NC(=O)C(=O)c2c(C)n(Cc3ccc(Cl)cc3)c3ccc(C)cc23)ccn1,,"cynomolgus monkey, plasma","oral, 10 mg/kg",,CL/F,52.2 mL/min/kg
COc1ccc(C)cc1NC(=O)OC1CC2CCCC(C1)N2Cc1ccc(CC[18F])cc1 (stereo not drawn),,"BALB/c mice, EMT6 tumour",5 min,baseline: tumour over fat,tumour to tissue ratio,0.65
C[C@H]1C(OC(=O)C(C)(C)C)O[C@@H]2O[C@@]3(C)CC[C@H]4[C@H](C)CCC1[C@@]24OO3 (stereo partly drawn),,Tg(fli1:EGFP) zebrafish embryos,"10 µg/mL, up to 48 hpf",,dead embryos,1 count
Cc1ccc(/C=C/C(=O)O)cc1-c1cc2c(cc1C)C(C)(C)CCC2(C)C,,"Sprague-Dawley rat, male, plasma","oral, 100 mg/kg, 6 h, sesame oil vehicle",,HDL level,50 ± 4 mg/dL
